# Measured values of several laboratories.
# Every numbered part comes from another study and shows a few of its results, in no order. Substitutions count along the parent as printed.

# Sample 1 — method: aptamer microarray, sandwich; form: DNA with 2'F-ANA; matrix: in vitro; tested at: 200 nM; added: Cy3 exosite-II aptamer, 400 nM; direction: higher = stronger binding; oligonucleotide: GGTTGGTGTGGTTGG
# Target: Prothrombin, mature alpha-thrombin (F2, Homo sapiens, UniProt P00734)
# Setting: whole 15-mer aptamer, many near background
Modification,mean fluorescence intensity [a.u.]
2'F-ANA at 2 4 7 9 12 13 14,111
2'F-ANA at 5 7 9 11 12 15,114
2'F-ANA at 1 4 8 9 11 13 14,50.1
2'F-ANA at 1 6 8 11 12 13,293
2'F-ANA at 5 6 8 10 12 14 15,47.1
2'F-ANA at 1 2 3 6 7 8 11 13 15,185
2'F-ANA at 1 3 8 9 13 14 15,83.6
2'F-ANA at 1 2 5 6 11 12 13 14 15,56.1
2'F-ANA at 3 5 6 8 10 13 14,48.5
2'F-ANA at 4 5 8 10 13,43.7
2'F-ANA at 1 4 6 8 9 13,76.9
2'F-ANA at 1 2 6 8 9 11 12 14 15,64.3
2'F-ANA at 3 6 7 8 10 12 13 14 15,379
2'F-ANA at 1 2 4 5 6 7 13,53.1
2'F-ANA at 3 4 9 12 14 15,366
2'F-ANA at 1 2 3 4 5 7,66.8

# Sample 2 — method: universal PBM; form: double-stranded DNA, one strand shown; matrix: in vitro; tested at: 600 nM; direction: higher = stronger binding
# Target: Sal-like protein 4, full length isoform A (SALL4, Homo sapiens, UniProt Q9UJQ4, residues 1-1053)
# Chain of UniProt Q9UJQ4 (whole entry, looked up): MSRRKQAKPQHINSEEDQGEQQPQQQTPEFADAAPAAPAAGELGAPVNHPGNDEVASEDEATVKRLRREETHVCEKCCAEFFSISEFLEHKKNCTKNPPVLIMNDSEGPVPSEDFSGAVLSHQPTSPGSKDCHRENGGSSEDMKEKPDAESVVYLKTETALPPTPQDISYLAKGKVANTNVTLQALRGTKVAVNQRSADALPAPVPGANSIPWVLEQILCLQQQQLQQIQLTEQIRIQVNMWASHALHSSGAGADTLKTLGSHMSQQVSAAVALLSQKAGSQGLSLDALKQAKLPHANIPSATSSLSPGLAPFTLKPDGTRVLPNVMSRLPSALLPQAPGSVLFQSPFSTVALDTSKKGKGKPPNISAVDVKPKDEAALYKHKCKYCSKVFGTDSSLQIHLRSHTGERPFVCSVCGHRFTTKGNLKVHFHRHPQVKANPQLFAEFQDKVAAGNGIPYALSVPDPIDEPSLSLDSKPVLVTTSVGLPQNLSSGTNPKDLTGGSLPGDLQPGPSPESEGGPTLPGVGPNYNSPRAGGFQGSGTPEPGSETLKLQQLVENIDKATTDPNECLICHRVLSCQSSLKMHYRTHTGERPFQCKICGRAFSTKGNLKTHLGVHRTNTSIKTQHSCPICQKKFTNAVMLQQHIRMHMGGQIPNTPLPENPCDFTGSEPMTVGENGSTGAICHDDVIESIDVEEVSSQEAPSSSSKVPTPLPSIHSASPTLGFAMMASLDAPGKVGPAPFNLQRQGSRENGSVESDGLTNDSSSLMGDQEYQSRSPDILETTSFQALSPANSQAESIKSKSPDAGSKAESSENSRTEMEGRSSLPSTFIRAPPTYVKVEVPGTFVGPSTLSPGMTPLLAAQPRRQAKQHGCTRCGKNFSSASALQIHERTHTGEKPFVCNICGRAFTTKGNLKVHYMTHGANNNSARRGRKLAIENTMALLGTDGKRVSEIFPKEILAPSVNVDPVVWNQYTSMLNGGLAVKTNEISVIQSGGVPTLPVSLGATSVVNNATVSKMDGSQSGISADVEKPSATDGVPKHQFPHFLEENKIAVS
# Setting: 8-mer, flanks averaged, mean of replicates
Oligonucleotide,E-score
AATGCCAG,-0.02
CTTGTCCA,0.0225
AGTTATAA,0.385
CGTGATGA,0.000945
TAAATCAA,0.343
ATGCGGGA,0.0358
ATCGCAAT,0.137
GACCGTAC,-0.215
GCACGACA,-0.153
GCCAGTCA,-0.193
ATGGACAC,0.0371
CTCAACCA,0.0161
CCCCAAGC,-0.191
CTAGTCAG,-0.0954
AGTGAAAA,0.181
ATTTAGAC,0.201
ATTTCAAA,0.336
CAGCAGAA,-0.023
AAAGGGCA,-0.0562
CTTACACC,-0.258
ACCTGGGA,-0.0351
CGAACAGC,-0.265
CTCTTCGC,-0.11
AACCAATT,0.164
GCGATGGA,-0.2

# Sample 3 — method: protein binding microarray; form: double-stranded DNA, one strand shown; matrix: in vitro; tested at: not given; relative to: not given; direction: higher = stronger binding
# Target: Histone acetyltransferase KAT6A, winged helix 2, GST fusion (KAT6A, Homo sapiens, UniProt Q92794, residues 85-181)
# Setting: 8-mer, flanks averaged, mean of 2 arrays, mostly near background
# Residues (chain): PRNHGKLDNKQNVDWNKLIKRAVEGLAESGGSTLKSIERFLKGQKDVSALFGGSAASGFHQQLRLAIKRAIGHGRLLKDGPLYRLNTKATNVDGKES
Oligonucleotide,E-score
ATAAGCTA,-0.107
CCTGGTCG,0.117
AAGTCTCT,-0.145
AGGTGTAT,-0.139
CCCAGCCA,0.0369
ACTCACCC,0.00555
ATTTATAG,-0.0807
GGCTTTAA,-0.0797
ATGTATTC,-0.052
ATATTGGA,-0.106
AGTCCCCC,-0.229
CCACTGAG,-0.0137
ATTCTGTC,-0.118
CAGAGTCA,-0.0375
CAGGCTGG,0.0339
ACAATCCG,0.0651
CCATATAG,-0.135
ACTTGTCT,-0.000395
AGATATCC,0.0423
CGGGTTGC,0.0733
ATCCTATA,-0.084
AACTCGAG,-0.105
CCAGCTAG,0.122
ACCAGGGG,0.157
TCGTTAGA,-0.149

# Sample 4 — method: RNA Bind-n-Seq; form: RNA; matrix: in vitro; tested at: 365 nM; relative to: no-protein control; direction: higher = stronger binding
# Target: RNA binding protein fox-1 homolog 2, RRM domain, GST-SBP tag (RBFOX2, Homo sapiens, UniProt O43251-10, residues 100-194)
# Setting: natural RNA segment, single round, ends assumed
# Shared flanks, not repeated: GGGAGUUCUACAGUCCGACGAUC … UGGAAUUCUCGGGUGCCAA
# Target sequence (chain): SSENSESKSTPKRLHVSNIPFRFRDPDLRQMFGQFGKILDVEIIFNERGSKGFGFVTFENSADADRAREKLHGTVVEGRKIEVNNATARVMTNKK
Oligonucleotide,RBNS enrichment (R)
UUGUCAGAUCCAUGUAUUUUGGAGCAUAAAAUGUAUGCUGUUGUGACCAAUAAAUAUAAAAUAUGGUAAUUGGAAUUAACUCCACACCAUAGUAUGCAUUGUUAUACAUA,0.66
AAUACAUAUCUAUGUCUCAUAAAAAUUAGAAUGUACUAUUUUAAAAUAAUAUGUGUAAAUUGAAAUUUUUUUCAUUUUUAAGUUAUCAGGCACUUUUCAUGCUGUUUAAA,1.46
GGAAGGCCACUGUUAGUAAGGUGCCAGAGCUGCGCCCUUUCCUCCAUCUGCCAUGCCCUAGCCACUAGAGUCUGGGUUCCAGCAGCUACCUGGGGACAUGUGGCUGCUCU,0.295
GAAAGGGACCCCUCUCCAGUCCUGGCUCCUUCCUACAUCCUGGGCUCCUGAAGAAGCUGUCUUCCCAUUUUCCAUGCGCUGUGCUUAUGUGUGGUGGACUGCAGAGCUGC,0.844
AUCUGGUAUUAUUACAGAAAUCUCCCAGAUUAUACACAUAAACAUUUUAUGGACAUUUUUUGGGCAUUUAAGCCAUCAGGCCUAUUGCAAGAGUGCCUCCUGUAGCAGUU,0.303
GUUUACAAGGUGGAGUCGGGGCUUGCUGACUUCUCUUCAUUUGAGGUCACAUUUUUCCCCCGUGGGGAAAUAAACUGACUUUGGACUGCUUCAGUCUCUGCCAUCUUCCA,0.382
GUAAAGAUUAGUUUCAGUGAGUCCCAGGGACUAAUUAAGGUUUAUUUUUAAAAGCGUCUGCCUUGGUGCGCAACCACCUCCUGCAUGCUAUGCAUGCUGUUGGGACUCGU,0.431
GGGGUAGUUGAUCUUCAGUCUCCAGGAGCCUGGGUACCGAGAUGAGAAAAGCCUGAACUAUUUAUUCAAAACAUGACCACUCUGGGCUAUAGAAGAUGCUGAGUGUGUUU,1.14
UCCUGGGAGGAGUUAGAAGUAAUGGUUUAGUUCAGGCAGCUACACGUGCCUAUUUAUCCCUCGUUCCUGAACACUACUAGUACCGUAGGGCUGGACCACCAUCUGUACCG,0.367
GUUCAUGAAACUAGAAAUGUCAUCCUGCUUGAUUUUUCAUCAGCCAAGUUAAACCCCUGCUUUCUGUCCUUUGCACCUUUUGCGUGAACAGAAUAUGCAUUAUUAAAGCA,1.05
UGAGGACUCAUAUAUUUAAGCCUUUUGUGUAAUAAGAAAGUAUAAAGUCACUUCCAGUGUUGGCUGUGUGACAGAAUCUUGUAUUUGGGCCAAGGUGUUUCCAUUUCUCA,1.27
GACAGUCCAGAGAUGAGCAGAAAUCUUAAAUUCCUUCCUGAUCCAGCCUCCACAUGUGGCCUGCCCCUUGCCCCAGCAUCUUUCCAGAACCCCUGGACUUGCCAGGUGCC,0.786

# Sample 5 — method: RNA Bind-n-Seq; form: RNA; matrix: in vitro; tested at: 20 nM; setting: 6-mer, flanks averaged, single round; added: 150 mM KCl; relative to: input library; direction: higher = stronger binding
# Target: TAR DNA-binding protein 43, full length, His tag (TARDBP, Homo sapiens, UniProt Q13148, residues 1-414)
Oligonucleotide,6-mer enrichment (R)
GAAGUA,0.87
UAUUUG,0.717
GUAGUC,0.78
GACCUC,0.655
AUUUUA,0.666
UUUUCU,0.673
AAUAGG,1.01
GGUCCG,1.55
UCACUC,0.548
AGUAAA,0.67
AGGCUU,0.703
CUACAC,0.6
CUUCGC,0.586
AUGUGU,1.16
GGCCGU,1.45

# Sample 6 — target: CCNB1, cyclin fold, Cln2 fusion (human); method: yeast growth competition, sequencing; matrix: yeast; setting: weak parent motif; relative to: not given; direction: higher = stronger binding
# Starting sequence: CDC25A docking peptide (human); PPHRRRLLFACSP
Variant,normalised enrichment score
EPHRRRLLFACSP [P1E],0.524
PPHRRRLLFAMSP [C11M],0.322
PPHRRRSLFACSP [L7S],0.164
PPHRRRLLMACSP [F9M],0.953
PPHRRRLLFACSN [P13N],0.849
PPHRDRLLFACSP [R5D],0.481
PPSRRRLLFACSP [H3S],1.11
PPHRRRLLFYCSP [A10Y],0.39
PPHRRRLLFACSQ [P13Q],0.73
PPHRRRGLFACSP [L7G],0.52
PPCRRRLLFACSP [H3C],1.39
PPHRRRLVFACSP [L8V],0.514
PSHRRRLLFACSP [P2S],0.315
PPHRVRLLFACSP [R5V],1.28
QPHRRRLLFACSP [P1Q],0.534
PPHRRRLEFACSP [L8E],0.404
PPHRRILLFACSP [R6I],-0.117
PPHRRRPLFACSP [L7P],0.0208
PPHRIRLLFACSP [R5I],1.3
PPHRGRLLFACSP [R5G],1.15
PPHKRRLLFACSP [R4K],0.737
LPHRRRLLFACSP [P1L],0.575
PPHRRRLLFVCSP [A10V],0.394
PPHRRRLLFAVSP [C11V],0.687
PPHRRRLLFACQP [S12Q],0.122

# Repeated from above (sample 4):
Oligonucleotide,RBNS enrichment (R)
UUGUCAGAUCCAUGUAUUUUGGAGCAUAAAAUGUAUGCUGUUGUGACCAAUAAAUAUAAAAUAUGGUAAUUGGAAUUAACUCCACACCAUAGUAUGCAUUGUUAUACAUA,0.66
AAUACAUAUCUAUGUCUCAUAAAAAUUAGAAUGUACUAUUUUAAAAUAAUAUGUGUAAAUUGAAAUUUUUUUCAUUUUUAAGUUAUCAGGCACUUUUCAUGCUGUUUAAA,1.46
GGAAGGCCACUGUUAGUAAGGUGCCAGAGCUGCGCCCUUUCCUCCAUCUGCCAUGCCCUAGCCACUAGAGUCUGGGUUCCAGCAGCUACCUGGGGACAUGUGGCUGCUCU,0.295
GAAAGGGACCCCUCUCCAGUCCUGGCUCCUUCCUACAUCCUGGGCUCCUGAAGAAGCUGUCUUCCCAUUUUCCAUGCGCUGUGCUUAUGUGUGGUGGACUGCAGAGCUGC,0.844
AUCUGGUAUUAUUACAGAAAUCUCCCAGAUUAUACACAUAAACAUUUUAUGGACAUUUUUUGGGCAUUUAAGCCAUCAGGCCUAUUGCAAGAGUGCCUCCUGUAGCAGUU,0.303
GUUUACAAGGUGGAGUCGGGGCUUGCUGACUUCUCUUCAUUUGAGGUCACAUUUUUCCCCCGUGGGGAAAUAAACUGACUUUGGACUGCUUCAGUCUCUGCCAUCUUCCA,0.382
GUAAAGAUUAGUUUCAGUGAGUCCCAGGGACUAAUUAAGGUUUAUUUUUAAAAGCGUCUGCCUUGGUGCGCAACCACCUCCUGCAUGCUAUGCAUGCUGUUGGGACUCGU,0.431
GGGGUAGUUGAUCUUCAGUCUCCAGGAGCCUGGGUACCGAGAUGAGAAAAGCCUGAACUAUUUAUUCAAAACAUGACCACUCUGGGCUAUAGAAGAUGCUGAGUGUGUUU,1.14
UCCUGGGAGGAGUUAGAAGUAAUGGUUUAGUUCAGGCAGCUACACGUGCCUAUUUAUCCCUCGUUCCUGAACACUACUAGUACCGUAGGGCUGGACCACCAUCUGUACCG,0.367
GUUCAUGAAACUAGAAAUGUCAUCCUGCUUGAUUUUUCAUCAGCCAAGUUAAACCCCUGCUUUCUGUCCUUUGCACCUUUUGCGUGAACAGAAUAUGCAUUAUUAAAGCA,1.05
UGAGGACUCAUAUAUUUAAGCCUUUUGUGUAAUAAGAAAGUAUAAAGUCACUUCCAGUGUUGGCUGUGUGACAGAAUCUUGUAUUUGGGCCAAGGUGUUUCCAUUUCUCA,1.27
GACAGUCCAGAGAUGAGCAGAAAUCUUAAAUUCCUUCCUGAUCCAGCCUCCACAUGUGGCCUGCCCCUUGCCCCAGCAUCUUUCCAGAACCCCUGGACUUGCCAGGUGCC,0.786
